Published values pooled from the literature.
Each line is one published result; not all experiments were run side by side.
Sample: plasma

`CN1CCC[C@]1(C)/C=C/S(=O)(=O)NC(=O)Nc1c2c(cc3c1CCC3)CC=C2` has an AUC(0-t) of 189000 ng·h/mL (human; oral, 12.5 mg twice daily of parent drug, day 14, metabolite of dosed drug).
For `O=C(CCc1ccc(CNC(C(=O)OC2CCCC2)C2CCCCC2)cn1)NO` (centres unmarked), the AUC(0-t) ratio was 1.49 (healthy male humans; oral, 20 mg, single dose; baseline: fed over fasted).
`CN(C(=O)C(C)(C)c1cc(C(F)(F)F)cc(C(F)(F)F)c1)c1cnc(N2C[C@H]3COC(O)CN3C[C@H]2CO)cc1-c1ccc(F)cc1CO` (some centres unmarked) gave an AUC(0-t) of 1140 ng·h/mL (human; oral, 120 mg, geometric mean).
For `CC1(C)CC[C@]2(NC(=O)C(C)(F)F)CC[C@]3(C)[C@H](C(=O)C=C4[C@@]5(C)C=C(C#N)C(=O)C(C)(C)[C@@H]5CC[C@]43C)[C@@H]2C1`, the AUC(0-t) was 695 ng·h/mL (human; oral, dose not given, geometric least-squares mean, with: efavirenz).
With `CC[C@H](C)[C@@H]1NC(=O)[C@H](Cc2ccc(O)cc2)NC(=O)CCCSC[C@@H](C(=O)N(CC(=O)N[C@@H](CC(C)C)C(=O)NCC(N)=O)Cc2ccc(F)cc2)NC(=O)[C@H](CC(N)=O)NC(=O)[C@H](CCC(N)=O)NC1=O` the AUC(0-t) was 0.028 ng·h/mL (healthy human; intranasal, 50 µg every 3 h, after second dose).
The AUC(0-t) of `Cc1cc(F)ccc1-c1cc(N2C[C@H]3COC(O)CN3C[C@H]2CO)ncc1N(C)C(=O)C(C)(C)c1cc(C(F)(F)F)cc(C(F)(F)F)c1` (some centres unmarked) is reported as 2380 ng·h/mL (human; oral, 120 mg, geometric mean).
The AUC(0-t) of `CN1CCC[C@]1(C)/C=C/S(=O)(=O)NC(=O)Nc1c2c(cc3c1CCC3O)CCC2` (some centres unmarked) is reported as 283000 ng·h/mL (human; oral, 12.5 mg twice daily of parent drug, day 14, metabolite of dosed drug).
`COc1cc2c(cc1OC)[C@H]1C[C@H](O)[C@H](CC(C)C)CN1CC2` gave an AUC(0-t) of 24.2 ng·h/mL (item: non-deuterated analyte; healthy human male; oral, 25 mg, geometric mean, [14C]-tetrabenazine dosed).
For `CN1CCC[C@]1(C)/C=C/S(=O)(=O)NC(=O)Nc1c2c(cc3c1CC(O)C3)CCC2` (some centres unmarked), the AUC(0-t) was 280000 ng·h/mL (human; oral, 100 mg twice daily of parent drug, day 14, metabolite of dosed drug).
With `COc1cc2c(cc1O)CCN1C[C@@H](CC(C)C)[C@H](O)C[C@H]21` the AUC(0-t) was 32.5 ng·h/mL (item: non-deuterated analyte; healthy human male; oral, 25 mg, geometric mean, [14C]-tetrabenazine dosed).
For `O=C(CCc1ccc(CNC(C(=O)O)C2CCCCC2)cn1)NO` (centres unmarked), the AUC(0-t) ratio was 1.25 (healthy male humans; oral, 20 mg, single dose; baseline: fed over fasted).

A few entries again:
`COc1cc2c(cc1OC)[C@H]1C[C@H](O)[C@H](CC(C)C)CN1CC2` gave an AUC(0-t) of 24.2 ng·h/mL (item: non-deuterated analyte; healthy human male; oral, 25 mg, geometric mean, [14C]-tetrabenazine dosed).
For `CN1CCC[C@]1(C)/C=C/S(=O)(=O)NC(=O)Nc1c2c(cc3c1CC(O)C3)CCC2` (some centres unmarked), the AUC(0-t) was 280000 ng·h/mL (human; oral, 100 mg twice daily of parent drug, day 14, metabolite of dosed drug).
